Assay results from different studies.
Compare with care: the assays were run in different laboratories.
Medium: plasma
Route: oral

The Tmax of `CC(=O)N[C@H]1CC[C@H](NC(=O)CN2CCN(c3nncc(-c4ccc(C)cc4)n3)CC2)CC1` is reported as 1.5 h (human; 20 mg, single dose, fasted, healthy volunteers).
For `C#C[C@]1(CO)O[C@@H](n2cnc3c(N)nc(F)nc32)C[C@@H]1O`, the Tmax was 0.5 h (human; 30 mg, single dose, fasted).
For `CNc1nc(Nc2ccc(-n3cnc(C)n3)c(OC)c2)nc2c1CC[C@H]2c1ccc(F)cc1`, the Tmax was 3 h (human; 10 mg, single dose, healthy volunteers).
For `C[C@@H]1CCC[C@H](n2cnc(-c3cc(Cl)ccc3-n3cc(Cl)nn3)cc2=O)c2cc(ccn2)-c2c(cnn2C(F)F)NC1=O`, the Tmax was 4 h (human; 200 mg, single dose, fed, healthy volunteers).
`O=C(c1nc2n(n1)[C@H](c1ccccc1)C[C@@H]2F)C1CC1` has a Tmax of 3.5 h (human; 225 mg, single dose, fasted, healthy volunteers).
With `CS(=O)(=O)n1cc2c(n1)CN([C@H]1CO[C@H](c3cc(F)ccc3F)[C@@H](N)C1)C2` the Tmax was 1 h (male human; 10 mg, single dose, fasted).
With `CCCOc1ccc([C@H]2CNC(=O)N2c2ccc3[nH]cnc3c2)cc1` the Tmax was 1.25 h (human; 1200 mg, single dose, fed).
`COc1cccc(-c2ccc(NC(=O)C3=C(C(=O)O)CCC3)c(F)c2)c1` has a Tmax of 3.4 h (male human; 40 mg, single dose, fasted, healthy volunteers).
For `Nc1ncc(-c2cnn(CCO)c2)c2scc(-c3ccc(NC(=O)Nc4cccc(F)c4)cc3)c12`, the Tmax was 3 h (human; 340 mg, patients).

Excerpt of the above:
With `CS(=O)(=O)n1cc2c(n1)CN([C@H]1CO[C@H](c3cc(F)ccc3F)[C@@H](N)C1)C2` the Tmax was 1 h (male human; 10 mg, single dose, fasted).
